Assay results collected from several papers.
Protocols differ between the studies behind these lines. Numbers after ± are the reported error.
UniProt Q9UMR5, sequence (whole entry, looked up): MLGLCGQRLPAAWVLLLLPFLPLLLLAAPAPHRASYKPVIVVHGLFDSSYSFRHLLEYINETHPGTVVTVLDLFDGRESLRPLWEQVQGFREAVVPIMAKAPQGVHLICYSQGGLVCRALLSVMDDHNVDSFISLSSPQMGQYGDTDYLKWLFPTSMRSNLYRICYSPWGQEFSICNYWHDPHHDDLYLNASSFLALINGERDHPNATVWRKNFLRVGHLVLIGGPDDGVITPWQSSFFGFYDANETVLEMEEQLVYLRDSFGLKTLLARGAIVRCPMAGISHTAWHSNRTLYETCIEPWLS
UniProt Q13310, sequence (whole entry, looked up): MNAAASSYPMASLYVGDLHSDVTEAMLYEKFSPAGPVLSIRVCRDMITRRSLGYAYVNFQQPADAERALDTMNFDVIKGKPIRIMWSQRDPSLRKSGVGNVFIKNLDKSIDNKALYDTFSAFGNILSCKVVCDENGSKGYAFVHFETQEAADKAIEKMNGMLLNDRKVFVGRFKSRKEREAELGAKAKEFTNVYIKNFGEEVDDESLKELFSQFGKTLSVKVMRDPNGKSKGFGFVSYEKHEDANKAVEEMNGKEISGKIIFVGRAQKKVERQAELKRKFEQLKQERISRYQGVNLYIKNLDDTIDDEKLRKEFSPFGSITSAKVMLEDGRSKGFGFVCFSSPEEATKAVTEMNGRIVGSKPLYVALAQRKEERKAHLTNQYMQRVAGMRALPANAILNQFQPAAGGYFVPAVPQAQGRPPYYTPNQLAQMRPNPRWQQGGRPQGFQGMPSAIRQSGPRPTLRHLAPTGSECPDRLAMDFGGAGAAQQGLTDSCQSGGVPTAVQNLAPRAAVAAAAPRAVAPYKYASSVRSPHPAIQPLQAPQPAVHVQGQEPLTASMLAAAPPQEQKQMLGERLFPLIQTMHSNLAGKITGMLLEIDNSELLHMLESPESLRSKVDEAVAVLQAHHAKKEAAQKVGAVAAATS
UniProt Q96FL8, sequence (whole entry, looked up): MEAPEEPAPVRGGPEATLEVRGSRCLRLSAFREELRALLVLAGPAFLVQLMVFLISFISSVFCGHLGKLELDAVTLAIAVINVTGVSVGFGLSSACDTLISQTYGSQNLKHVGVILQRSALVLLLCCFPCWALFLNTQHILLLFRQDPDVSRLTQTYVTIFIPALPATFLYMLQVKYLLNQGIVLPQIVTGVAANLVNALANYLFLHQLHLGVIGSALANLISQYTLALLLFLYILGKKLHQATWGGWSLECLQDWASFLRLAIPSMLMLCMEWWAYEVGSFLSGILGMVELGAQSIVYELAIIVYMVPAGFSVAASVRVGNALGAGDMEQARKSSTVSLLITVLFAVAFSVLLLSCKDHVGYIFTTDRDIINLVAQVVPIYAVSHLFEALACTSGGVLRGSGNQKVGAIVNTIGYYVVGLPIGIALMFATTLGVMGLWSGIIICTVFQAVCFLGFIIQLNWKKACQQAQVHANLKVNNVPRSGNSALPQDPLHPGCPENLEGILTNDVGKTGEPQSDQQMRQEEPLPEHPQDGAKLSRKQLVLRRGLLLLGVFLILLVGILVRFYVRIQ
UniProt P10635, sequence (whole entry, looked up): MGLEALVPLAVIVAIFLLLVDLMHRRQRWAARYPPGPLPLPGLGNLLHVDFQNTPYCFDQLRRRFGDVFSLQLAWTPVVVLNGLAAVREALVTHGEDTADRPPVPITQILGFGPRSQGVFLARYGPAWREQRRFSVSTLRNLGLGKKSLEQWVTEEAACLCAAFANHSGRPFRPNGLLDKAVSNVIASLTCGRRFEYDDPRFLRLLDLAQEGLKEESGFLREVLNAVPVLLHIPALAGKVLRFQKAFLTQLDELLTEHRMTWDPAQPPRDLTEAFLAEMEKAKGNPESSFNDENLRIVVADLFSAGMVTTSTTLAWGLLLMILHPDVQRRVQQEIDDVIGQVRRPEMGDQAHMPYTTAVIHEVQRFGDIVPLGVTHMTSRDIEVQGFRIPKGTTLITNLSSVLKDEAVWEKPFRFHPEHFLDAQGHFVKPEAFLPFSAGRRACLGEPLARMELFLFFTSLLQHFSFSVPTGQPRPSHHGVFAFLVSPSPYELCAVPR
UniProt P28335, sequence (whole entry, looked up): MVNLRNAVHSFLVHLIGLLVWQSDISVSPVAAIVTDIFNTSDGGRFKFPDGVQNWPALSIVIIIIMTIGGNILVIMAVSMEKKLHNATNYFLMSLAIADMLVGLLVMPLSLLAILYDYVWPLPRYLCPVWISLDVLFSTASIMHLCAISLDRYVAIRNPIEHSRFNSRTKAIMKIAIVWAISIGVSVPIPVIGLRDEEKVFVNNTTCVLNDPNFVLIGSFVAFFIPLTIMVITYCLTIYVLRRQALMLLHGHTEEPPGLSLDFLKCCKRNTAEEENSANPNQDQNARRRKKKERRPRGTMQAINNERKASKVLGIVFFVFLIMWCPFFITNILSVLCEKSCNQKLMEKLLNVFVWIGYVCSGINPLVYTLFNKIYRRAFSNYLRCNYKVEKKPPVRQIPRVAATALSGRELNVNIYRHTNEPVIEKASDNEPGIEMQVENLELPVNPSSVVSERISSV
UniProt Q9GZQ6, sequence (whole entry, looked up): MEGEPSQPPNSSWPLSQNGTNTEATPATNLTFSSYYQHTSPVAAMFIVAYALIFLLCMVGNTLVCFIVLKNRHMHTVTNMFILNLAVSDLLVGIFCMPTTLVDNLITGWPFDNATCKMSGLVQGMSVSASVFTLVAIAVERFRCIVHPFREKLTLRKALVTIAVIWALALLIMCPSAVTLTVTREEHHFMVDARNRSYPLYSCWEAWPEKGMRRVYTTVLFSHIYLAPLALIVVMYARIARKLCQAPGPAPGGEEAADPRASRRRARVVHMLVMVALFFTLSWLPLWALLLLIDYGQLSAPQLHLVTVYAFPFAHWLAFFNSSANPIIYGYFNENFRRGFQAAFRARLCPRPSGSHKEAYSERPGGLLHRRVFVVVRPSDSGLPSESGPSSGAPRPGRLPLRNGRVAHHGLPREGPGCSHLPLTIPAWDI
UniProt Q15303, sequence (whole entry, looked up): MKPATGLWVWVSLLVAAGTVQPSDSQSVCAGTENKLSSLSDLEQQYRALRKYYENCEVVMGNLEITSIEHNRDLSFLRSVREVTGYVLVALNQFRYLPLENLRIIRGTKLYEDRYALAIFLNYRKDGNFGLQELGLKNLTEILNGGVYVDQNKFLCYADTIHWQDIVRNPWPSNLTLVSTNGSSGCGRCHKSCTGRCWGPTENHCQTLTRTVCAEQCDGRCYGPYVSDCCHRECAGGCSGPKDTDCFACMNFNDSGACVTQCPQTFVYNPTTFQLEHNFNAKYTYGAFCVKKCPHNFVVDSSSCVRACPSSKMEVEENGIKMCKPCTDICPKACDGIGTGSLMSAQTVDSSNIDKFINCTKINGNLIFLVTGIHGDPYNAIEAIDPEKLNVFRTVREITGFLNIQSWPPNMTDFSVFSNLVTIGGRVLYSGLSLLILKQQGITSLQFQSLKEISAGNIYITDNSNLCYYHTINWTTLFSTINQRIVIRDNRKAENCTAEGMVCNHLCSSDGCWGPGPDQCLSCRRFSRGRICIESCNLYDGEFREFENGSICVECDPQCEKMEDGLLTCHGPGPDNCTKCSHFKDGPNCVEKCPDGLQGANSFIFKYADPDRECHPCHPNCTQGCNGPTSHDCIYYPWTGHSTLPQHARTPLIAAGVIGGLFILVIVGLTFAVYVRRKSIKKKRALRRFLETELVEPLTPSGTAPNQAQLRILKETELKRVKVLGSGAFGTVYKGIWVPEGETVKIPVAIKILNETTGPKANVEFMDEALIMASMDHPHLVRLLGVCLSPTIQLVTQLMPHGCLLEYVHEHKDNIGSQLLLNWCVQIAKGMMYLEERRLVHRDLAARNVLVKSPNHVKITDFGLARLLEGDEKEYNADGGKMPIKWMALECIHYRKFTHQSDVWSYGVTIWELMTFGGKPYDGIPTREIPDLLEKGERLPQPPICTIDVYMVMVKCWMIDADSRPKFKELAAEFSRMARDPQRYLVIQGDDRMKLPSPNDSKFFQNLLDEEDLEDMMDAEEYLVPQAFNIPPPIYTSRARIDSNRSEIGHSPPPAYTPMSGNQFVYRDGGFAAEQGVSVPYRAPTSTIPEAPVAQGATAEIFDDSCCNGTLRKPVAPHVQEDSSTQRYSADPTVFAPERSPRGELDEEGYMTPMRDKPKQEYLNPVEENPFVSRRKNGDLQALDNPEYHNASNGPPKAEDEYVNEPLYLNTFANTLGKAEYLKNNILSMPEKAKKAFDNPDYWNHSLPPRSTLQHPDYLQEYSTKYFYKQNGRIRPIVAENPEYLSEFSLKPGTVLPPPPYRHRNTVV
UniProt Q969F8, sequence (whole entry, looked up): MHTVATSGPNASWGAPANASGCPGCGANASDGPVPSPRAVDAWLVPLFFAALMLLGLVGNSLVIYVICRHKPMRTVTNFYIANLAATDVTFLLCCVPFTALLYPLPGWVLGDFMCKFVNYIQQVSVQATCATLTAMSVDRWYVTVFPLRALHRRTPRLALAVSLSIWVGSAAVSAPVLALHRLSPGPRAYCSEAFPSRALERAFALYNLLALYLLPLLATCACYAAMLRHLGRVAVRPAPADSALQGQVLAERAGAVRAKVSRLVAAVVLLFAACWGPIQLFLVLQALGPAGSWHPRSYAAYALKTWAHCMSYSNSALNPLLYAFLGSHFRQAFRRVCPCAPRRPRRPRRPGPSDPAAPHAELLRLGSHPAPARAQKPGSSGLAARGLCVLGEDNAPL

CN1CC[C@@H](c2c(O)cc(O)c3c(=O)cc(-c4ccc(C(F)(F)F)cc4Cl)oc23)[C@@H]1CO — patients with adverse event (item: Sepsis; AML; oral, 150 mg, intermittent dosing): 50%
CN1CCN(c2cc(-c3ccncc3)c(-c3ccc4ccccc4c3)nn2)CC1 — inhibition (HTR2C (Homo sapiens, UniProt P28335); antagonist, FLIPR; 10 µM): -9.6%
C[C@@H](O)[C@@H](CO)NC(=O)[C@@H](CCCNC(=N)N)NC(=O)[C@@H]1CCCN1C(=O)[C@@H]1CSSC[C@H](NC(=O)[C@H](Cc2ccccc2)NC(=O)CN2CCN(CC(=O)O)CCN(CC(=O)O)CCN(CC(=O)O)CC2)C(=O)N[C@@H](Cc2ccc(O)cc2)C(=O)N[C@@H](Cc2ccccc2)C(=O)N[C@@H](CCC(N)=O)C(=O)N[C@@H](CC(N)=O)C(=O)N1 [gallium-68 labelled] — tissue uptake (Wistar rat, lungs; intravenous, 8 MBq, 120 min, group mean): 0.08 %ID/g
CO[C@H]1C[C@@H]2CC[C@@H](C)[C@@](O)(O2)C(=O)C(=O)N2CCCC[C@H]2C(=O)O[C@H]([C@H](C)C[C@@H]2CC[C@@H](OC(=O)NCCOCCOCCOCCOCCOCCOCCOCCOCCC(=O)N3CCc4cc(Cn5nc(-c6ccc7oc(N)nc7c6)c6c(N)ncnc65)ccc4C3)[C@H](OC)C2)C[C@@H](O)[C@H](C)/C=C(\C)[C@@H](O)[C@@H](OC)C(=O)[C@H](C)C[C@H](C)/C=C/C=C/C=C/1C — AEs causing dose modification (phase 1 dose escalation; advanced solid tumour patients; intravenous, 16 mg weekly, any grade): 100%
COc1ncnn2ccc(-c3cnc4nc(C)n(Cc5nnc([C@@H](C)F)o5)c4c3)c12 — patients with diarrhea (human; oral, dose not given, grade 3): 7.1%
CC[C@H](C)[C@@H]1NC(=O)[C@@H]2CCCN2C(=O)[C@H](CC(C)C)NC(=O)[C@H](CC(C)C)NC(=O)CNC(=O)[C@@H](NC(=O)[C@@H](NC(=O)[C@H](CC(=O)O)NC(=O)CNC(=O)[C@@H](NC(=O)[C@H](C)NC(=O)CNC(=O)[C@H](CCCCN)NC(=O)[C@H](CC(C)C)NC(=O)[C@H](CC(C)C)NC(=O)[C@H](CCCCN)NC(=O)CNC(=O)[C@@H](NC(=O)[C@@H](N)CC(C)C)C(C)C)C(C)C)C(C)C)CSSC[C@@H](C(=O)O)NC1=O — log2 fold change (RNA-seq, item: Rbm38; mouse, traumatic brain injury model, frontal cortex and hippocampus; dose not given; relative to: TBI alone): -1.53
CCC1(c2ccccc2)C(=O)NC(=O)NC1=O — CYP2B6 mRNA induction (primary human hepatocytes; inducer; 1000 µM, unit not given; relative to: vehicle): 5.48
CC[C@H](C)[C@H](NC(=O)[C@H](CC(C)C)NC(=O)[C@@H](NC(=O)[C@@H](NC(=O)[C@@H](NC(=O)[C@H](CCCCN)NC(=O)[C@H](CCCCN)NC(=O)[C@H](CCCCN)NC(=O)[C@@H](N)CCCCN)C(C)C)[C@@H](C)CC)[C@@H](C)CC)C(=O)N[C@@H](CO)C(=O)N[C@@H](CC(C)C)C(=O)N[C@@H](CCCCN)C(=O)N[C@@H](CCCCN)C(=O)N[C@@H](CCCCN)C(=O)N[C@@H](CCCCN)C(=O)N[C@@H](Cc1ccccc1)C(=O)N[C@@H](CO)C(=O)N[C@@H](C)C(=O)N[C@@H](Cc1ccc(O)cc1)C(N)=O — hemolysis (human erythrocytes; 400 µM, 1 h; relative to: Triton X-100): 17%
COc1cc(Nc2ncc(F)c(Nc3ccc4c(n3)NC(=O)C(C)(C)O4)n2)cc(OC)c1OC — IC50 (KiSS-1 receptor (KISS1R, Homo sapiens, UniProt Q969F8)): > 10 µM
COc1cc2c(Oc3ccc4[nH]c(C)cc4c3F)ccnc2cc1OCC1(N)CC1 — grade 3 Rash (paediatric recurrent refractory sarcoma; 8 mg/kg): 0%
O=C(/C=C/c1ccc(O)c2oc(-c3ccc(O)c(O)c3)cc12)O[C@H](Cc1ccc(O)c(O)c1)C(=O)O — CC50 (293T-ACE2; cytotoxicity, MTT; 48 h, 50% serum): > 100 µM
CC[C@H](C)[C@H](NC(=O)[C@H](C)NC(=O)[C@H](CCCCN)NC(=O)[C@H](CCCCN)NC(=O)[C@H](CCCCN)NC(=O)[C@H](CCCCN)NC(=O)[C@H](CCCCN)NC(=O)[C@@H](N)CCCCN)C(=O)N[C@@H](CO)C(=O)NCC(=O)N[C@@H](CO)C(=O)N[C@@H](CC(C)C)C(=O)N[C@H](C(=O)N[C@H](C(=O)N[C@@H](CC(C)C)C(=O)N[C@@H](Cc1ccccc1)C(=O)NCC(=O)N[C@@H](Cc1ccc(O)cc1)C(N)=O)[C@@H](C)O)C(C)C — hemolysis (human erythrocytes; 400 µM, 1 h; relative to: Triton X-100): 23%
COc1ccc(-n2nc(C(C)=O)s/c2=N\N=C(/C)c2ccc(NC(C)=O)cc2)cc1 — viability (WI-38; 0.078 µM, 24 (unit not given)): 80.2%
C[C@H]1CN(c2n[nH]c3nc(N[C@H]4CC[C@H](NS(=O)(=O)CCC(F)(F)F)CC4)ncc23)CCO1 — remaining binding (Polyadenylate-binding protein 4 (Homo sapiens, UniProt Q13310); Kinobeads competition, item: PABPC4; 0.8 µM, unit not given; relative to: vehicle): 1.44
CNC(C)Cc1ccc2c(c1)OCO2 (stereo not shown) — remaining activity (Cytochrome P450 2D6 (CYP2D6, Homo sapiens, UniProt P10635); enzyme activity; 300 µM, preincubation with NADPH, with: dextromethorphan O-demethylation): 28.9%
O=C(c1ccc(Cl)cc1)N1CCN2C(=O)N(OC(=O)N3CCOc4ccccc43)C(=O)C2C1 (stereo not shown) — median ratio (PPT2 (Homo sapiens, UniProt Q9UMR5); enzyme activity, inhibitor, MS-based ABPP; SW-620 conditioned medium; 10 µM, 1 h, 37 °C; relative to: compound over DMSO, lower = stronger inhibition): 1.91
COc1ccc(N2C(=O)N(c3c(C)cccc3Cl)Cc3cnc(Nc4ccc(C5CCN(C)CC5)cc4OC)nc32)nc1 — inhibition (ERBB4 (Homo sapiens, UniProt Q15303); kinase activity; 0.5 µM): 99%
Cc1cc(C(=O)NC(C)(C)COc2cccc3c2C(N)=NS(=O)(=O)N3)cc(C)n1 — revertant ratio (Salmonella typhimurium; Ames test, confirmatory; TA98; 3333 µg/plate; relative to: solvent control): 0.8
CC(C)CC(=O)OC[C@H]1O[C@@](C#N)(c2ccc3c(N)ncnn23)[C@H](O)[C@@H]1O — recovery (ABCB1 (Homo sapiens, UniProt P08183); Caco-2 monolayer; 0.9 µM, 2 h, basolateral to apical, with: zosuquidar 25 µM): 76.5%
CC[C@H](C)[C@H](NC(=O)[C@H](CCCCN)NC(=O)[C@H](CCCNC(=N)N)NC(=O)[C@H](CCCCN)NC(=O)[C@H](CCCNC(=N)N)NC(=O)[C@H](CCCCN)NC(=O)[C@@H](N)CCCNC(=N)N)C(=O)N[C@@H](CO)C(=O)N[C@@H](Cc1ccccc1)C(=O)N[C@@H](CC(C)C)C(=O)NCC(=O)N[C@@H](CO)C(=O)N[C@@H](CCCCN)C(=O)N[C@H](C(=O)N[C@H](C(=O)N[C@H](C(=O)N[C@@H](CC(C)C)C(=O)N[C@@H](CC(C)C)C(=O)N[C@@H](CCCCN)C(=O)N[C@@H](CCCNC(=N)N)C(N)=O)C(C)C)C(C)C)C(C)C — hemolysis (human erythrocytes; 400 µM, 1 h; relative to: Triton X-100): 23%
Cc1onc(-c2c(F)cccc2Cl)c1C(=O)N[C@@H]1C(=O)N2[C@@H]1SC(C)(C)[C@@H]2C(=O)O — deviation from nominal concentration (human plasma; concentration not given, 8 months, -80 °C): 13.4%
CC[C@H](C)[C@H](NC(=O)[C@H](Cc1ccccc1)NC(=O)[C@H](CCC(=O)O)NC(=O)[C@H](CCCNC(=N)N)NC(=O)[C@H](C)NC(=O)[C@H](C)NC(=O)[C@H](CCC(N)=O)NC(=O)[C@H](CCC(=O)O)NC(=O)[C@H](CCC(=O)O)NC(=O)[C@H](CC(C)C)NC(=O)[C@H](Cc1ccc(O)cc1)NC(=O)[C@H](CO)NC(=O)[C@H](CO)NC(=O)[C@@H](NC(=O)[C@H](CC(=O)O)NC(=O)[C@H](CO)NC(=O)[C@@H](NC(=O)[C@H](Cc1ccccc1)NC(=O)[C@@H](NC(=O)CNC(=O)[C@H](CCC(=O)O)NC(=O)[C@H](C)NC(=O)CCc1c[nH]cn1)[C@@H](C)O)[C@@H](C)O)C(C)C)C(=O)N[C@@H](C)C(=O)N[C@@H](Cc1c[nH]c2ccccc12)C(=O)N[C@@H](CC(C)C)C(=O)N[C@H](C(=O)N[C@@H](CCCNC(=N)N)C(=O)NCC(=O)N[C@@H](CCCNC(=N)N)C(=O)N[C@@H](CCCCNC(=O)COCCOCCNC(=O)COCCOCCNC(=O)CC[C@H](NC(=O)CCCCCCCCCCCCCCCCC(=O)O)C(=O)O)C(=O)NCC(=O)NCC(=O)N[C@@H](CO)C(=O)N[C@@H](CCCCNc1c(NCCCCCN(O)C(=O)CCC(=O)NCCCCCN(O)C(=O)CCC(=O)NCCCCCN(O)C(C)=O)c(=O)c1=O)C(=O)O)C(C)C [zirconium-89 labelled] — tissue uptake (rat, intestine; sc, 3 nmol/kg, 72 h, ex vivo): 0.1 %ID/g
COc1cccc(-c2n[nH]c(SCc3ccccn3)n2)c1OC — revertant colonies per plate (Salmonella typhimurium; Ames test, plate incorporation; TA98; 0.016 mg/plate, without S9): 15
Oc1ccc2c3c1O[C@H]1[C@@H](O)CC[C@@]4(O)[C@@H](C2)N(CC2CCC2)CC[C@]314 — log2 fold change (NPFFR1 (Homo sapiens, UniProt Q9GZQ6); β-arrestin recruitment, TANGO luminescence, item: NPFF1; concentration not given; relative to: basal luminescence): 0.164
CCCCCCCCc1ccc(CCC(N)(CO)CO)cc1 — inhibition (SLC47A1 (Homo sapiens, UniProt Q96FL8); transport, inhibitor; transiently transfected cells; 100 µM, 10 (unit not given), with: metformin): 10.5%
CC[C@H](C)[C@H](NC(=O)[C@H](C)NC(=O)[C@H](CCCNC(=N)N)NC(=O)[C@H](CCCNC(=N)N)NC(=O)[C@@H](N)CCCNC(=N)N)C(=O)N[C@@H](CO)C(=O)NCC(=O)N[C@@H](CO)C(=O)N[C@@H](CCCNC(=N)N)C(=O)N[C@@H](CCCNC(=N)N)C(=O)N[C@@H](CCCNC(=N)N)C(=O)N[C@@H](CC(C)C)C(=O)N[C@@H](Cc1ccccc1)C(=O)NCC(=O)N[C@@H](Cc1ccc(O)cc1)C(N)=O — hemolysis (human erythrocytes; 400 µM, 1 h; relative to: Triton X-100): 2%
[Cl-].[Cl-].[Pt+2].[Ru+2].c1ccc(-c2nccnc2-c2ccccn2)nc1.c1cnc2c(c1)ccc1cccnc12.c1cnc2c(c1)ccc1cccnc12 — hatching rate (Danio rerio; embryos; 45 µM, 96 h): 30 ± 3.7%
CC(=O)N1CCC(C(=O)N2CCN3C(=O)c4cc(-c5ccccc5)ccc4NC(=O)C3C2)CC1 (stereo not shown) — revertants per plate (Salmonella typhimurium; TA100; 5.0 µg/plate, without S9): 92.5

A few entries again:
COc1ncnn2ccc(-c3cnc4nc(C)n(Cc5nnc([C@@H](C)F)o5)c4c3)c12 — patients with diarrhea (human; oral, dose not given, grade 3): 7.1%
COc1ccc(-n2nc(C(C)=O)s/c2=N\N=C(/C)c2ccc(NC(C)=O)cc2)cc1 — viability (WI-38; 0.078 µM, 24 (unit not given)): 80.2%
COc1cccc(-c2n[nH]c(SCc3ccccn3)n2)c1OC — revertant colonies per plate (Salmonella typhimurium; Ames test, plate incorporation; TA98; 0.016 mg/plate, without S9): 15
COc1ccc(N2C(=O)N(c3c(C)cccc3Cl)Cc3cnc(Nc4ccc(C5CCN(C)CC5)cc4OC)nc32)nc1 — inhibition (ERBB4 (Homo sapiens, UniProt Q15303); kinase activity; 0.5 µM): 99%
